Experimental data pooled from the literature.
Every numbered part comes from another study and shows a few of its results, in no order. Changes are numbered by the printed parent chain.

Set 1
Target: CCNA1, cyclin fold, Cln2 fusion (human)
Method: yeast growth competition, sequencing
Medium: yeast
Notes: weak parent motif
Baseline: not given
Direction: higher = stronger binding
Endpoint: normalised enrichment score
Starting sequence: CDC25A docking peptide (human); PPHRRRLLFACSP; partner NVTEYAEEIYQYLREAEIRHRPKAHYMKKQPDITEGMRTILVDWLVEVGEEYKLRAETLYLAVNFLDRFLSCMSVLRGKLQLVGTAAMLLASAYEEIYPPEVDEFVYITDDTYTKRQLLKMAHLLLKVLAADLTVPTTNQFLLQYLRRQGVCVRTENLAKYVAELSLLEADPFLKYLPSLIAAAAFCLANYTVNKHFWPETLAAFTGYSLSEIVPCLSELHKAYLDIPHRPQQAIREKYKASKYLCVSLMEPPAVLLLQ
L7D: 0.298
L8M: 0.244
R5N: -0.127
F9M: 0.275
L7M: 0.166
H3M: 0.202
R4L: 0.17
P13F: 0.0668
R4F: 0.388
P2E: 0.301
R4Y: 0.333
R5C: 0.085
C11F: 0.283
A10E: 0.134
S12A: 0.158
R5S: 0.0434
C11M: 0.00455
A10W: 0.372
P2W: 0.266
P2A: 0.156
P13R: 0.211
C11L: 0.293
F9Q: 0.26
P2F: 0.296
P13Y: 0.181

Set 2
Target: PABPC1L2, full length, GST fusion (mouse, UniProt A0ABA7IW68)
Method: RNAcompete
Molecule type: RNA
Medium: in vitro
Concentration: 20 nM
Notes: 7-mer, probes averaged, single round
Baseline: mean of 7-mers
Direction: higher = stronger binding
Endpoint: 7-mer Z-score
Construct (chain): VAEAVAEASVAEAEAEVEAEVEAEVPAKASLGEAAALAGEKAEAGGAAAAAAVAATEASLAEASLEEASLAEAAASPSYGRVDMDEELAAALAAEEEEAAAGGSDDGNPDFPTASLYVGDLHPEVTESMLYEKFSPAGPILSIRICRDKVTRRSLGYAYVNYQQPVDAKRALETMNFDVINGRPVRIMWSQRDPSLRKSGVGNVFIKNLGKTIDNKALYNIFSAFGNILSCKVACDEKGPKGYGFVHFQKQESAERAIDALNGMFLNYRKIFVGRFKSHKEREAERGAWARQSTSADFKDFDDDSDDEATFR
AGGGGCU: 0.45
AUGAGAG: -0.0863
GUGAAAC: -0.0101
UGACUCC: -0.0772
UCGGACG: -0.135
UCACACA: -0.173
UAGGAAA: 0.572
GUCAGUA: -0.128
GGAAUAA: 0.642
AAUAUCU: 0.066
GUGGGAA: 0.334
UUCUACA: -0.228
UAGCCGC: -0.248
ACUGACU: -0.0663
GAGCAUA: 0.0805
UAGGAUG: 0.0587
CGUAAAA: 3.66
GCCCCGG: -0.396
UUCGCAG: -0.269
ACGCUCG: -0.318
UUCGGCU: -0.409
GUAGUCU: -0.255

Set 3
Target: FOSL2, bZIP domain (human)
Method: DHFR protein complementation
Medium: yeast
Notes: single substitutions, most at no-binding floor
Baseline: wild-type JUN-FOS pair
Direction: higher = stronger binding
Endpoint: binding fitness
Starting sequence: JUN, bZIP domain (human); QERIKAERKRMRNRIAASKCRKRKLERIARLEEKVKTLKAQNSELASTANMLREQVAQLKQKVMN; partner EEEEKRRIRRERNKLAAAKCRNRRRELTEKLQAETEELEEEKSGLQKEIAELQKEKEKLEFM
E44W: -0.284 natural log
Q55R: -0.0429 natural log
E44K: 0.0192 natural log
S43D: 0.00318 natural log
S47H: 0.0706 natural log
E44P: -1.32 natural log
V56L: -0.198 natural log
K34F: -0.28 natural log
E44N: -0.0781 natural log
E33H: -0.0854 natural log
T48Y: 0.102 natural log
E54A: -0.0434 natural log
E54N: -0.0483 natural log
L45F: -0.395 natural log
L31W: -0.122 natural log
A40H: 0.0546 natural log

Set 4
Target: ABI1, truncated, D143A, DHFR fusion (Arabidopsis thaliana)
Method: DHFR PCA, deep sequencing
Medium: yeast
Notes: methotrexate growth selection, single substitutions
With: (+)-ABA 58 µM
Baseline: wild-type fitted maximum
Direction: higher = stronger binding
Endpoint: relative binding score
Starting sequence: PYL1, truncated, DHFR fusion (Arabidopsis thaliana); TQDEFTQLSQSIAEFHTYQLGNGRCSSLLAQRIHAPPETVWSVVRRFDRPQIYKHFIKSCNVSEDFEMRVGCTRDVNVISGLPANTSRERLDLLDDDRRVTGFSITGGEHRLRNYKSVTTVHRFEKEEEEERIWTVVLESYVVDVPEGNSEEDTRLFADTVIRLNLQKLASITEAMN; partner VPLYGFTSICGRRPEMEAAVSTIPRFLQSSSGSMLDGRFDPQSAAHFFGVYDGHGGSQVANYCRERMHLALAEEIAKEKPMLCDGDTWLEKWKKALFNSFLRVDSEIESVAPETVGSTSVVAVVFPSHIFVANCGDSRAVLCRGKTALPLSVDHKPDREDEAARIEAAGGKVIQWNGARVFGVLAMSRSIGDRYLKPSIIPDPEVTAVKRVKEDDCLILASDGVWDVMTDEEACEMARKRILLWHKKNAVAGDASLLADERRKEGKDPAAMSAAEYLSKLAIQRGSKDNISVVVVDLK
E67D: 90.1%
W41V: -8.81%
V43H: 45.9%
V137M: 21.2%
V76H: -6.2%
A158M: 71.7%
Y141L: 5.24%
S150Q: 55.6%
V142P: -3%
I52N: 71.7%
V145T: 67.8%
S59A: 80.9%
E139A: 55.6%
T106N: 47.6%
T160Q: 60.1%
T119Y: -3.12%
D65K: 88.2%
F124W: 89.4%
S150A: 57.2%
D144W: 9.91%
D95W: 22.3%
C60Q: -6.46%
S11E: 103%
R69Y: 72.1%
P50N: 0.494%

Set 5
Target: Fragile X messenger ribonucleoprotein 1, C-terminal low-complexity region (Fmr1, Mus musculus, UniProt P35922)
Method: RNA Bind-n-Seq
Molecule type: RNA
Medium: in vitro
Concentration: 200 nM
Notes: whole 134-nt RNA, ends assumed
With: 150 mM KCl
Baseline: input library
Direction: higher = stronger binding
Endpoint: log2 enrichment
All sequences stand within: GGGAGUUCUACAGUCCGACGAUC … UGGAAUUCUCGGGUGUCAAGG
UGGCCCUGGUGGCAUGCGGGGAGGAAGAGGUGGCCUCAUGGAUCAUGGUGGUCCCGGUGGAAUGUUCAGAGGUGGCCGUGGUGGAGACAG: -0.126
UGGGAGGUGGAUUUUGUUUAUUUUUUUAGCUCAUUUCCAGGGGUGGGAAUUUUUUUUUAAUAUGUGUCAGGAAUAAAGUUGUUUUUGAAA: 0.509
UCAAGUCCUGUGCUACACAUCGUAUGUACCGAAUCGGGCCCGGCCCGGGCCCGGGAAAGUAUUAUGUUACGCCGUUCGGAUCUGCACUUC: -0.234
AGUCCUGUGCUACACAUCGUAUGUACCGAAUCGGGGUUUUGGGUUUUGGUUUUGGGGAAAGUAUUAUGUUACGCCGUUCGGAUCUGCACU: 0.251
AGUCCUGUGCUACACAUCGUAUGUACCGAAUCAAACCCCCCCAAAUUUAAAUUUAAAAAAGUAUUAUGUUACGCCGUUCGGAUCUGCACU: 0.298
GCAGGAAGUAAAAACAAAUGGAAAUGCUUCGGAUAGUGGCAGGGGUGGGGGUUGCUAAGGAAAGGGUAAAAUGGGAGUGGGUAAAGAGUU: 0.232
CUCAAGUCCUGUGCUACACAUCGUAUGUACCGAAUCGGGUUUGGGAGGGAGGGAAAGUAUUAUGUUACGCCGUUCGGAUCUGCACUUCCA: 1.37
ACCAUGCAGGUGGGCAUCUUUGGGAAGUGGGGCAAGGGGGGGAUAGGGAGGGGGGUAACACUUUAAAAACAGGUGGUCCCAGGUCGUUUC: 0.646
CACAGACAACACGCACCCACACACACACAGAGGGAAGGGGUUGGGAUGGGGACAGGGUGCACAGCAGGGCGGGGUAGGACCCCAGCCCCU: 1.16

A few entries again (set 2):
UAGGAAA: 0.572
GUCAGUA: -0.128
GGAAUAA: 0.642
AAUAUCU: 0.066
GUGGGAA: 0.334
UUCUACA: -0.228
UAGCCGC: -0.248
ACUGACU: -0.0663
GAGCAUA: 0.0805
UAGGAUG: 0.0587
CGUAAAA: 3.66
